Measured values of several laboratories.
Parts stem from different laboratories: compare values within a part only. Changes are numbered by the printed parent chain.

Study 1
Target: RING finger protein unkempt homolog, zinc fingers 1-6, GST-SBP tag (UNK, Homo sapiens, UniProt Q9C0B0, residues 30-357)
Method: RNA Bind-n-Seq
Molecule type: RNA
Sample: in vitro
Tested at: not given
Notes: RNA with constant flanks, human and mouse sites, ends assumed
Relative to: input RNA pool
Reading: higher = stronger binding
Quantity: bound/input enrichment
Constant ends, left off below: GGGAGUUCUACAGUCCGACGAUC … CAACAGAGGAUUGAGCAUCA
Construct (chain): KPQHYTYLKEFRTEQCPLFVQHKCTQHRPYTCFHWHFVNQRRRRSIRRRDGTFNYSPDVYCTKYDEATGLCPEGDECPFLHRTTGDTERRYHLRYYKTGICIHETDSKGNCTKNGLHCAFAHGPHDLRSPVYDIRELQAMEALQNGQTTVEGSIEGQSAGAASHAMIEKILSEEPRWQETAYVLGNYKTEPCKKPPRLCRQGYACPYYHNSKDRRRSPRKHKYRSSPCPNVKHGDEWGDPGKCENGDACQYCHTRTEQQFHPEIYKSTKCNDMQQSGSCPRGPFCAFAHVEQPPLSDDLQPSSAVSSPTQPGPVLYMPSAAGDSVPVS
UGAAUUUUCAAUGUUUAAUCAGUAUGGAUCUGAUCUUCGCAUGAUCUUUUUUGUGAAUGCUAACACCAUUUUGCAGUUUUUUUUUUCUAUUUUAAACAUUUUUCUUUUCACUGCCGACCC: 1.03 ratio
GAAUUGGUACAAGCCAUGUUUCCCAAACUGAACAAUCAAGAAAGAGUUACACUGUUAGACCUUAUGAUAGCCAAGAUAACGAGUGAUGAGCCACUCACCAAGGAUGACAUCCCUGUGUUU: 2.49 ratio
CAGCUUCGGCAGGACAUAGUUGCAGGACGUCUGCCCUGUUCCUUUGCAACCUUAGCAUUAUUAGGUUCUUACACCAUCCAGUCUGAACUGGGAGACUACGACCCAGAACUCCAUGGCGUG: 0.569 ratio
CAUGAGGAAAGAACAAUUCUCCCUAUGUCGAGAGCAUUCCGCGGUAAACACCUCUCUUUUGUAGUUCGAUUUCCAAACCAGGGCAGACAGGUUGAUGACUUGGAGGUAUGGUCUCAUACA: 0.149 ratio
UCUCCAAGCAAGAGGUACUGUUUUCGUUGUUGGGCCUUGAGGAAGGAUUGGUAUUCAGAUUGUUCAAAGUUAACCCAUUCUCUCUCCACGUCUGAUAUCACUGCCAUACCUGAAAAGGAA: 0.272 ratio
UCCCCUCAAGCACCAACACACUUUCUGGUGAUACCCAAGAAGCAUAUAUCCCAGAUUUCUGUAGCAGAUGAUGAUGAUGAAAGUCUUCUAGGACAUUUAAUGAUUGUUGGCAAGAAAUGU: 0.286 ratio
AAGAAGUAAAUCAAUGCUAAAUGAAGAAUCUGUACUUUGUAUGUAUAGAAUUUAUCUAAUAAAUCAUUCAUAGAUCAUUUUAAAGGAUCAUUAUAAAAAUCAUAAACCUAUUUGAGGAAG: 1.45 ratio
CAUCCAGGUGAUGGAUGGGGAGAAGGAUCCCCGUAAUCUCCUGCUGGCUUUCCGCAUCGUCCAUGACCUCAUCUCCAAGGACUACAGUCUGGGACCUUUCGUGGAAGAGUUAUUUGAAGU: 0.0471 ratio
GUCCUUAUCUUGAAGACUGGAGAUGGCAGCAAUGUAACCAGCAACUUCACAAAAGACCCUUCUAUUCUAAUCCCUGAGUUAAUCCCUGGUGUCUCUUACACAGUGAAGAUCCUUACACAA: 0.203 ratio
GCUUCUUGGGAUACCUUUCUCAUGCUAUGGAAUUUCAAGCCACAUGCUAGAGCUUACAGAUAUGUGGGUCACAAGGAUGUUGUAACCAGCGUGCAGUUUUCUCCACAUGGAAACUUAUUG: 0.0842 ratio
UAGAUCAGUGUGUCUCAUUGAUCAAUUUGCCAUGUGUAUAUAAUGUAUAUUUGUGUGUAUACACACUUUGUCUUAUGCUGUAAUUUUUUUAAAACUUGAAUGUUUUGGGAUAUGUAUUUA: 0.255 ratio

Study 2
Target: Ras GTPase-activating protein-binding protein 1, full length (G3BP1, Homo sapiens, UniProt Q13283)
UniProt Q13283, sequence (whole entry, looked up): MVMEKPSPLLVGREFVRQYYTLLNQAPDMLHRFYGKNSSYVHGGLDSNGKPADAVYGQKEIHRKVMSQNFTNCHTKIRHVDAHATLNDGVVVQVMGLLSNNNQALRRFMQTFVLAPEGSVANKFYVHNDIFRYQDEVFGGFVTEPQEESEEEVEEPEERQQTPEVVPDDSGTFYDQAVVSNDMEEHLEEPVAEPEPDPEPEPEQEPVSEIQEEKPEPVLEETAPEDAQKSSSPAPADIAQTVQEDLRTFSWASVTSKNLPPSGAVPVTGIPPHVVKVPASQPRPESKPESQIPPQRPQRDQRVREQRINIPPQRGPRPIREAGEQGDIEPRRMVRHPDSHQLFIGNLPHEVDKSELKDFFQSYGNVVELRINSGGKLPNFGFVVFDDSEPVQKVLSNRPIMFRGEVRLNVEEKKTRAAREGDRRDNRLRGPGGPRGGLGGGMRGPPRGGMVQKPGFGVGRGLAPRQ
Method: RNA Bind-n-Seq
Molecule type: RNA
Sample: in vitro
Tested at: 200 nM
Notes: whole 134-nt RNA, ends assumed
Added: 150 mM LiCl
Relative to: input library
Reading: higher = stronger binding
Quantity: log2 enrichment
All molecules: 7-deaza-guanosine replaces G
Constant ends, left off below: GGGAGUUCUACAGUCCGACGAUC … UGGAAUUCUCGGGUGUCAAGG
UUCGAAGAGGUUGUGUACCAGGCCAUGGGUGAGUGCCCGGGCCACCGAGGCCACGUGCCUCCACGAGGGGCUGCCUAUGCCCCACCCUGG: -0.0138
ACCAUGCAGGUGGGCAUCUUUGGGAAGUGGGGCAAGGGGGGGAUAGGGAGGGGGUUAACACUUUGGGAACAGGUGGUCCCAGGUCGUUUC: 0.39
CCUGUGCUACACAUCGUAUGUACCGAAUCGGGGCCCCCCGGCCCCCCGGGCCCCCCGGGGAAAGUAUUAUGUUACGCCGUUCGGAUCUGC: 0.155
AAGUCCUGUGCUACACAUCGUAUGUACCGAAUCGGGUGGGAAAAAAAGGGUUUGGGAAAGUAUUAUGUUACGCCGUUCGGAUCUGCACUU: -1.69
CAAGUCCUGUGCUACACAUCGUAUGUACCGAAUCGGGGCCCGGGGCCCGGGCCCGGAAAGUAUUAUGUUACGCCGUUCGGAUCUGCACUU: -0.969
UCCUGUGCUACACAUCGUAUGUACCGAAUCGGGGAAAAAAAGGGGUUUUUGGGGAGGGGAAAGUAUUAUGUUACGCCGUUCGGAUCUGCA: 0.45
CACAGACAACACGCACCCACACAGACACAGAGGGAAGGGGUUGGGCUGGGGACAGGGUGCACAGCAGGGCGGGGUAGGACCCCAGCCCCU: -0.61
GCAGGAAGUAAAAACAAAUGGAAAUGCUUCGGAUAGUGGCAGGGGUGGGGGUUGCUAAGGAAAGGGUGGGAUGGGAGUGGGUAAACAGUU: -0.415
UGUGCUACACAUCGUAUGUACCGAAUCGGUUUUUUUGGGGUUUUUUUGGGGUUUUUUUGGGGAAAGUAUUAUGUUACGCCGUUCGGAUCU: 1.82
CUCAAGUCCUGUGCUACACAUCGUAUGUACCGAAUCGGUGGUGGAAAAAAAGGAAAGUAUUAUGUUACGCCGUUCGGAUCUGCACUUCCA: 0.139
CUGUGCUACACAUCGUAUGUACCGAAUCGGGGAAAAAAAGGGAAAAAAAGGAAAAAAAGGGGAAAGUAUUAUGUUACGCCGUUCGGAUCU: 0.415

Study 3
Target: CCNB3, cyclin fold, Cln2 fusion (human)
Method: yeast growth competition, sequencing
Sample: yeast
Notes: weak parent motif
Relative to: not given
Reading: higher = stronger binding
Quantity: normalised enrichment score
Parent: RRM2 docking peptide (human); SKTARRIFQEPTE; partner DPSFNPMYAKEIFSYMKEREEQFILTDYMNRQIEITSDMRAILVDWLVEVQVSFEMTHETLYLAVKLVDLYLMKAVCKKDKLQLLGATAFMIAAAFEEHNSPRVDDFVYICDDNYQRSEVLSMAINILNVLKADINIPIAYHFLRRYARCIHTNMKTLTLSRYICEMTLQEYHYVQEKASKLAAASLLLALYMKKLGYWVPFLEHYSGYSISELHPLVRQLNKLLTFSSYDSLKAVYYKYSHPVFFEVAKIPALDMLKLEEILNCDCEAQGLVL
E13A: 0.245
E10A: 0.155
S1A: 0.0914
P11A: -0.175
F8A: 0.22
K2A: 0.0879

Study 4
Target: Sal-like protein 4, full length isoform B (SALL4, Homo sapiens, UniProt Q9UJQ4-2, residues 1-616)
Method: universal PBM
Molecule type: double-stranded DNA, one strand shown
Sample: in vitro
Tested at: not given
Notes: 8-mer, flanks averaged, mean of replicates
Reading: higher = stronger binding
Quantity: E-score
Residues (chain): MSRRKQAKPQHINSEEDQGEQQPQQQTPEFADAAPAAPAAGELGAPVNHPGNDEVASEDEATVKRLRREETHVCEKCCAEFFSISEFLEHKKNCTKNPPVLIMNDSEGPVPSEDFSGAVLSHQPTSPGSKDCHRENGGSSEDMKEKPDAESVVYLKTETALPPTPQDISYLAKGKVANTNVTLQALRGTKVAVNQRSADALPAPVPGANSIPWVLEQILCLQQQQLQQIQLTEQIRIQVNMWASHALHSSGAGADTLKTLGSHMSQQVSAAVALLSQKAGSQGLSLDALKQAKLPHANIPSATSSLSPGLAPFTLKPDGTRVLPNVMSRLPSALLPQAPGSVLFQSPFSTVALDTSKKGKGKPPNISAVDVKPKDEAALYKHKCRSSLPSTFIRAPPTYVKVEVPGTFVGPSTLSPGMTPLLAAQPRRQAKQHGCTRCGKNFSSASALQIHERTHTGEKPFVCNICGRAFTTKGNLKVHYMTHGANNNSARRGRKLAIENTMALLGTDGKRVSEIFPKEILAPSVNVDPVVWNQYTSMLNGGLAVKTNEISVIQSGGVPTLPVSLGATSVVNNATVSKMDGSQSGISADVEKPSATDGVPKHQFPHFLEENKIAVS
ACCCGTGG: -0.233
CTAAGATC: -0.0047
ACCCGCGC: -0.256
GGAAACCA: -0.218
AATGCCAC: -0.00503
AATAGTAA: 0.29
AATGCCGT: 0.0493
AGAATCTC: -0.0426
AGGCTCCA: -0.19
GCGTTGCC: -0.183
AAGGGAAG: 0.153
CCGTCTAA: -0.136
AGGACTAC: -0.168
AATTTATC: 0.329
CTAAAATA: 0.259
AAACCACA: 0.113
AACTAACC: 0.11

Study 5
Target: Histone acetyltransferase KAT6A, winged helix 1, GST fusion (KAT6A, Homo sapiens, UniProt Q92794, residues 1-85)
Method: protein binding microarray
Molecule type: double-stranded DNA, one strand shown
Sample: in vitro
Tested at: not given
Notes: 8-mer, flanks averaged, mean of 2 arrays, mostly near background
Relative to: not given
Reading: higher = stronger binding
Quantity: E-score
Construct (chain): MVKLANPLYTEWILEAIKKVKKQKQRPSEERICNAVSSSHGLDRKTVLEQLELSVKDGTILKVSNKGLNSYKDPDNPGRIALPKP
CGTCGTTA: 0.0649
AACTCAAA: -0.14
CATGTCAA: -0.169
TCACCCCA: -0.145
AGCATGTA: -0.153
CCCCTGTA: 0.00973
AAGGAGAA: -0.166
ACAGAGAA: 0.00345
AGAAGTAT: -0.0639
GCGGCAAA: 0.316
AACAAGCC: -0.0664
TAGATGAA: -0.163
GTGCCGGA: 0.19
TCTCGCAA: 0.0238
CGCTAGCA: -0.0132
AGCCCCCG: 0.317
AAGCTCCT: -0.119
GGAGAAAC: 0.0453
ACAATAAC: -0.0939
AACATCCG: 0.122

Study 6
Target: Interferon regulatory factor 7, full length, phosphomimetic (IRF7, Homo sapiens, UniProt Q92985, residues 1-503, S471D/S472D/S475D/S476D/S477D/S483D/S484D/S487D)
Method: protein-binding microarray
Molecule type: double-stranded DNA, one strand shown
Sample: in vitro
Tested at: 2200 nM top
Notes: 60-bp whole probe
Added: salmon DNA 0.4 mg/ml
Relative to: random background probes
Reading: higher = stronger binding
Quantity: fitted relative affinity
Constant ends, left off below: GCCTAGCAC … GTCTTGATTCGCTTGACGCTGCTG
Target sequence (chain): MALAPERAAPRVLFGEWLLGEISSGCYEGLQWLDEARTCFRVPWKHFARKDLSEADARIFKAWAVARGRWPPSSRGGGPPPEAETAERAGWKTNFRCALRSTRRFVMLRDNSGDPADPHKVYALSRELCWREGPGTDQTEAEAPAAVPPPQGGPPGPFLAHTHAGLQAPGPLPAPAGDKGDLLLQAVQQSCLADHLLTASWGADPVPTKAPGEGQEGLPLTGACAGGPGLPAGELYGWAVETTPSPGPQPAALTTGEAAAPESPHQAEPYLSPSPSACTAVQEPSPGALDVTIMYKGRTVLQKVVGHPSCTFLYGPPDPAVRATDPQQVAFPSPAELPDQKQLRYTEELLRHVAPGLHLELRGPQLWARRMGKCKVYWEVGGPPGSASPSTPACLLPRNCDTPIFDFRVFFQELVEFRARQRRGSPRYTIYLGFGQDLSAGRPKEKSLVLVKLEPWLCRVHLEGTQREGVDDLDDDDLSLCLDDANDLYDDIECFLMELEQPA
GACGGTTTCGCCTTTCGGGACGTGCTA: 6.62 z-score
TTTGGTATCCTTATCCTTTAGTGCTAG: 1.52 z-score
GACGACATCGGGTTTCGAGACGTGCTA: 1.24 z-score
GACGATTTAAGTCTCGAGACGTGCTAG: 0.136 z-score
TTAGGTATCGGTCTCCGTTAGTGCTAG: 0.801 z-score
GTGAATATATGTATATATGTGTGCTAG: 0.588 z-score
TTAGATTTCAGACTGGAGTAGTGCTAG: -0.273 z-score
GACGGTCTCGGTACCGGGACGTGCTAG: -0.304 z-score
TCATTTCTCAAATGTTTTACTGTGCTA: 1.71 z-score
TTAGGTATCATTCTCCTTTAGTGCTAG: 0.972 z-score
TTAGATATCACTATCGATTAGTGCTAG: 0.358 z-score
TCAGCTTTGCTTCCTGCACTGTGCTAG: 0.9 z-score
TTAGGACCGGGACTGGGTTAGTGCTAG: -0.9 z-score
TTAGGTTTAGACTATCGGTTAGTGCTA: 0.0695 z-score
TAAGATCTCAGTTTCGATTAGTGCTAG: 5.57 z-score
TTAGGTTTCCGGTATCGGTTAGTGCTA: 2.61 z-score
TTAGGTTTCGGGTTTCGGTCAGTGCTA: 9.61 z-score
GACGGACTGCTTCTCATGACGTGCTAG: 0.479 z-score
AATCATTTTAGTTTTCATTAGTGCTAG: 2.41 z-score
TCATTTTGCTTTCTTTTACTGTGCTAG: 4.17 z-score

A few entries again (study 6):
TTAGGTATCGGTCTCCGTTAGTGCTAG: 0.801 z-score
TTAGGTTTCGGGTTTCGGTCAGTGCTA: 9.61 z-score
TTAGGTTTAGACTATCGGTTAGTGCTA: 0.0695 z-score
TCATTTTGCTTTCTTTTACTGTGCTAG: 4.17 z-score
TTAGGTTTCCGGTATCGGTTAGTGCTA: 2.61 z-score
TTAGATTTCAGACTGGAGTAGTGCTAG: -0.273 z-score
TAAGATCTCAGTTTCGATTAGTGCTAG: 5.57 z-score
GACGGTCTCGGTACCGGGACGTGCTAG: -0.304 z-score
